# Published values collected from several papers.
# Every numbered part comes from another study and shows a few of its results, in no order. Positions count from the first letter of the parent shown.

# Set 1 — method: RNA Bind-n-Seq; form: RNA; matrix: in vitro; tested at: not given; relative to: input RNA pool; reading: higher = stronger binding
# Target: RING finger protein unkempt homolog, zinc fingers 1-6, GST-SBP tag (UNK, Homo sapiens, UniProt Q9C0B0, residues 30-357)
# UniProt Q9C0B0, sequence (30-357, looked up): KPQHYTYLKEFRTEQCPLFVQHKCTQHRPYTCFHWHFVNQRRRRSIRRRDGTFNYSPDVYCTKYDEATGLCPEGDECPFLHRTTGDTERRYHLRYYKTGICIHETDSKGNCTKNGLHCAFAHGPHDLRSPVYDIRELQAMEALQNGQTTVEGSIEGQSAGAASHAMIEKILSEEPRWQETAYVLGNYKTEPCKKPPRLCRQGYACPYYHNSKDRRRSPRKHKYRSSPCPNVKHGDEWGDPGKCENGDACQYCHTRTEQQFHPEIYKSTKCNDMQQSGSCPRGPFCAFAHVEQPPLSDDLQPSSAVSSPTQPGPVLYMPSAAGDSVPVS
# Setting: RNA with constant flanks, human and mouse sites, ends assumed
Strand,bound/input enrichment [ratio]
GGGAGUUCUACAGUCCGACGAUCAAAUGUACAGAAUCUGAAGAAGAAGAAGUCACCAAAGGAAAGGAAAAUCAACUUCAGCUUAGCUGUUUUAUCAAUCAGGAAGUCAAGUAUCUUUUUACAGGACUUAAAUUGCGACUUCAGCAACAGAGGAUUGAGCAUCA,0.152
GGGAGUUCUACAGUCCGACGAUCUCCUUGCCUUCUGCUCUUUCAUUAGCUCUAGGAUUCUGAGUGAAUUCUAGAAAUAAUGAAGGGAAAACUGAUAAGAUAGCUCUCAUGCAAAUGUCAUUAGUUAAGUAAUUGUUCUAGUGUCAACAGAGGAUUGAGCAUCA,1.01
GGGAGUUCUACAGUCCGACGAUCAGGCCUUACGAGUGUGUGGAGUGUGGGAAGACAUUCAAGACCAAGUCGUCCCUUAUCUGUCAUCGUAGAUGUCACACGGGAGAGAAACCUUAUGAGUGCAGUGCAUGUGGUAAAGCCUUUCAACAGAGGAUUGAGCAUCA,0.341
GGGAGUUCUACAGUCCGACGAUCAACAUGACUAUUACUAAUGACUACCAGCACCUGCUUGUCAAUUCCAUUGCCAACUUUUUCCGCUUGUUAUCUCAGGGGGGUGGAAAAAUCAAGGUUGAGAUUCUGAAAAUACUUUCAAACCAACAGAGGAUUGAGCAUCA,0.304
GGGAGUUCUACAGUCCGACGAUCACAGCCAUUGCUUUCAAAGAGAUUAUUACUGUGUAUUCUCCCUGUUUUACAAUAUGUUUUCAUGAAGACUAUGUUACACCAGAGGCUUCUGAUUAUCAAAGUGAUAACCAGUUUUAACUGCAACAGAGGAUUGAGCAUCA,0.107
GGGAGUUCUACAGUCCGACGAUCUUGAAUAGUUACUUUAAAUCUCUGGGAAGCAGUGAUUUGAAAUUCUAAAGUUUAUUUUGGAGCAAAGGUCAACACAUCAUAGCACAGAGGCUAGGCCCAUUUUCAUGCAGCCUACAAGCUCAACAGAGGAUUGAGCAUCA,1.82
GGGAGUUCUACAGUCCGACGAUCGUUUCCGCUGAGAAAAAUGCUCCCACAGAAGACGUGCAUGGUGGUGGGGACCACAGACACAUCCCGCUGUGUCAGUGACUGCUUGGCAGUGGCUUUCAUCCUUCAGCAAAUUCACACACGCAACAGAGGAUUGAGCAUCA,0.171
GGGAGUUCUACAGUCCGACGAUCAGCACAUCGUCGUUUUGGGGGAAGUCUACAACUACUCCUGUGAACCAGAUCCAAGAAACAAUUUCUAACAAUUGUGUGGUGAUCUUCUCAAAAACAUCCUGCUCUUACUGUUCCAUGGCCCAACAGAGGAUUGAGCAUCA,0.13
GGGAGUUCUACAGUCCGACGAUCGUUGCCAGACCGGCCCAUAAAAAGAAAGCUCGAAUGGCGCGGACGCGCUCCGAUUUCUUGACUAGAGGUACUUUUGCCGAAGGGGAGGGGGAUACAGAGGAAGAUGAUUACGAUGACAUUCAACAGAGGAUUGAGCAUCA,0.228
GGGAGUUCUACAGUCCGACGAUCGAAACAGAAUUAAAACAUUUCCACUGGGUUUCGCCUGUAAGAAAAAGUGUACCUGAGCACAUAGCUUUUUAAUAGCACUAACCAAUGCCUUUUUAGAUGUAUUUUUGAUGUAUAUAUCUACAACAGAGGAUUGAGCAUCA,12.4
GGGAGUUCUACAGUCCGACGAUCAAGAAGGAGUUUCUGGGCAGGACCGGUGGCAGUUGGUUUAAGAUCCUUCUAUUCUACGUAAUAUUUUAUGGCUGCCUGGCUGGCAUCUUCAUCGGAACCAUCCAAGUGAUGCUGCUCACCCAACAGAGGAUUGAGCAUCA,0.259

# Set 2 — target: UBE2Z UBC core domain (UniProt Q9H832); method: yeast two-hybrid; matrix: yeast; setting: mostly zero background; relative to: not given; reading: higher = stronger interaction
# B1: IRF2BPL RING domain (UniProt Q9H1B7); chain SPMANSGPLCCTICHERLEDTHFVQCPSVPSHKFCFPCSRESIKAQGATGEVYCPSGEKCPLVGSNVP
# B2: RNF170 RING domain (UniProt Q96K19); chain TRQQFYTDMYCPICLHQASFPVETNCGHLFCGACIIAYWRYGSWLGAISCPICRQTVTLLLTVF
# B3: TRIM63 RING domain (UniProt Q969Q1); chain PMENLEKQLICPICLEMFTKPVVILPCQHNLCRKCANDIFQAANPYWTSRGSSVSMSGGRFRCPTCRHEVIMDRHGV
# B4: ZNF598 RING domain (UniProt Q86UK7); chain AAAPERGGGSCVLCCGDLEATALGRCDHPVCYRCSTKMRVLCEQRYCAVCREELRQVVFGK
# B5: MID1 RING domain (UniProt O15344); chain METLESELTCPICLELFEDPLLLPCAHSLCFNCAHRILVSHCATNESVESITAFQCPTCRHVITLSQRGL
# B6: TRIM69 RING domain (UniProt Q86WT6); chain VIQDITMELHCPLCNDWFRDPLMLSCGHNFCEACIQDFWRLQAKETFCPECKMLCQYNNCTF
# Target sequence (chain): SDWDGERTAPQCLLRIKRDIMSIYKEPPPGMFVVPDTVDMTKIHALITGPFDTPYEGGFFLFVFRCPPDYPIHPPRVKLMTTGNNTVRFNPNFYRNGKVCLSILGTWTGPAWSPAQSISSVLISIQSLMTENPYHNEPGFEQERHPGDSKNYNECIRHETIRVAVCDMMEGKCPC
Molecule,lacZ reporter activity
B1 (IRF2BPL RING domain),9990
B2 (RNF170 RING domain),0
B3 (TRIM63 RING domain),0
QLRRLQEERTCKVCMDKEVSVVFIPCGHLVVCQECAPSLRKCPICRGIIKGTVRTF (BIRC2 RING domain (UniProt Q13490)),0
EDEVSDNSAECVVCLSDVRDTLILPCRHLCLCNTCADTLRYQANNCPICRLPFRALLQIR (RNF157 RING domain (UniProt Q96PX1)),0
YWAMDSTFELCKICAESNKDVKIEPCGHLLCSCCLAAWQHSDSQTCPFCRCEIKGWEAVS (CBLC RING domain (UniProt Q9ULV8)),0
DDENSDNSNECVVCLSDLRDTLILPCRHLCLCTSCADTLRYQANNCPICRLPFRALLQIR (MGRN1 RING domain (UniProt O60291)),0
B4 (ZNF598 RING domain),0
VTLSLTLPITCHICLGKVRQPVICINNHVFCSICIDLWLKNNSQCPACRVPITPENPCK (OBI1 RING domain (UniProt Q5W0B1)),0
QHHELTSLFECPVCFDYVLPPILQCQAGHLVCNQCRQKLSCCPTCRGALTPSIRNL (SIAH2 RING domain (UniProt O43255)),0
B5 (MID1 RING domain),0
B6 (TRIM69 RING domain),0

# Set 3 — method: protein binding microarray; form: double-stranded DNA, one strand shown; matrix: in vitro; tested at: not given; relative to: not given; reading: higher = stronger binding
# Target: Histone acetyltransferase KAT6A, both winged helices, GST fusion (KAT6A, Homo sapiens, UniProt Q92794, residues 1-181)
# Setting: 8-mer, flanks averaged, mean of 2 arrays, mostly near background
# Target sequence (chain): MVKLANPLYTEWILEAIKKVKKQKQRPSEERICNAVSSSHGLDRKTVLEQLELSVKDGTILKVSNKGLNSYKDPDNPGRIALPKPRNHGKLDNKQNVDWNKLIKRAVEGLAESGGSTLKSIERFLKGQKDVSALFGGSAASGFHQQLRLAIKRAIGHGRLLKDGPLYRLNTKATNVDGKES
Strand,E-score
GGGGCCCC,-0.129
ATTACATG,-0.00831
GAGAGTCC,-0.0249
AGGGGCCA,-0.321
TATATCGA,0.107
ATAACCTA,-0.115
ACGAATAA,-0.0329
CGACGAGA,-0.0945
AACCATTA,-0.0414
GACCACCC,-0.158
CGGGGCGA,0.125
GGTTCTTA,-0.00178
CTCATCGA,-0.127
AATTTGAG,-0.195
CTGGTGAA,-0.0224
AAGGTGCC,0.092
GATCGTCC,0.122
GACCTACA,0.0119

# Set 4 — method: aptamer microarray, sandwich; form: DNA with 2'F-ANA; matrix: in vitro; tested at: 200 nM; with: Cy3 exosite-II aptamer, 400 nM; reading: higher = stronger binding; strand: GGTTGGTGTGGTTGG
# Target: Prothrombin, mature alpha-thrombin (F2, Homo sapiens, UniProt P00734)
# Setting: whole 15-mer aptamer, many near background
Modification,mean fluorescence intensity
2'F-ANA at 3 6 8 12 13 15,1000 a.u.
2'F-ANA at 2 6 7 10 11 12 13,146 a.u.
2'F-ANA at 2 3 4 5 6 7 8 9 10 11 15,48.1 a.u.
2'F-ANA at 1 2 4 5 6 8 9 11 12 13 14,48.7 a.u.
2'F-ANA at 2 3 6 8 10 11,313 a.u.
2'F-ANA at 3 4 6 9 10 12 15,303 a.u.
2'F-ANA at 4 6 9 11 13 14,73.3 a.u.
2'F-ANA at 1 5 6 8 11 12,89.5 a.u.
2'F-ANA at 1 2 3 8 10 11 12 15,85.9 a.u.
2'F-ANA at 2 3 4 5 6 7 8 9 10 14 15,55.8 a.u.
2'F-ANA at 4 8 10 13 14 15,90.3 a.u.
2'F-ANA at 1 2 5 6 8 9 10 12 13,49.6 a.u.
2'F-ANA at 5 9 14 15,64.4 a.u.
2'F-ANA at 3 4 5 7 9 12 14 15,53.3 a.u.
2'F-ANA at 4 5 6 8 9 13 15,72.8 a.u.
2'F-ANA at 3 5 6 7 9 11 13 15,70.3 a.u.
2'F-ANA at 1 2 3 6 7 8 14 15,76.3 a.u.
2'F-ANA at 2 3 8 9 10 11 15,313 a.u.
2'F-ANA at 6 7 10 11 13,156 a.u.
2'F-ANA at 1 2 4 7 10 11 13 15,66.8 a.u.
2'F-ANA at 1 3 4 6 9 10 11 12 13 14,55 a.u.
2'F-ANA at 1 2 4 5 6 7 10 11 12 13 15,50.8 a.u.
2'F-ANA at 1 2 3 5 7 8 12 13 14 15,59.7 a.u.
2'F-ANA at 2 4 5 9 12,150 a.u.
2'F-ANA at 4 5 10 14,79.4 a.u.

# Set 5 — method: DHFR PCA, deep sequencing; matrix: yeast; with: (+)-ABA 58 µM; relative to: wild-type fitted maximum; reading: higher = stronger binding
# Target: ABI1, truncated, D143A, DHFR fusion (Arabidopsis thaliana)
# Setting: methotrexate growth selection, single substitutions
# Starting sequence: PYL1, truncated, DHFR fusion (Arabidopsis thaliana); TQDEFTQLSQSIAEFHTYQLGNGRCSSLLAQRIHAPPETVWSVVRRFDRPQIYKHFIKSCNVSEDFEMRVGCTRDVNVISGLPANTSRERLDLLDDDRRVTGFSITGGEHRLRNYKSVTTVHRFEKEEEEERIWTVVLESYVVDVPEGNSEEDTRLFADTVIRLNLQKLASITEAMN
Substitution,relative binding score
T39M,83.1%
T106F,94%
T135V,34.9%
R163D,29.8%
R24V,84.2%
N177S,82.4%
T86F,71.4%
R46N,55.8%
Y53H,74%
E151M,80.2%
Q10A,99.6%
T154D,-5.99%
N77V,89.6%
S26N,75.3%
F124M,97.1%
R111G,23.2%

# Excerpt of the above (set 3):
Strand,E-score
GATCGTCC,0.122
ACGAATAA,-0.0329
AACCATTA,-0.0414
GAGAGTCC,-0.0249
